Measurements from different studies.
Compare with care: the assays were run in different laboratories. Several values in a cell are separate wells, animals, samples, runs or records. ± gives the spread as reported.
ALB: Albumin (ALB, Homo sapiens, UniProt P02768)
ABCB1: ATP-dependent translocase ABCB1 (ABCB1, Homo sapiens, UniProt P08183)
UniProt P20813, sequence (whole entry, looked up): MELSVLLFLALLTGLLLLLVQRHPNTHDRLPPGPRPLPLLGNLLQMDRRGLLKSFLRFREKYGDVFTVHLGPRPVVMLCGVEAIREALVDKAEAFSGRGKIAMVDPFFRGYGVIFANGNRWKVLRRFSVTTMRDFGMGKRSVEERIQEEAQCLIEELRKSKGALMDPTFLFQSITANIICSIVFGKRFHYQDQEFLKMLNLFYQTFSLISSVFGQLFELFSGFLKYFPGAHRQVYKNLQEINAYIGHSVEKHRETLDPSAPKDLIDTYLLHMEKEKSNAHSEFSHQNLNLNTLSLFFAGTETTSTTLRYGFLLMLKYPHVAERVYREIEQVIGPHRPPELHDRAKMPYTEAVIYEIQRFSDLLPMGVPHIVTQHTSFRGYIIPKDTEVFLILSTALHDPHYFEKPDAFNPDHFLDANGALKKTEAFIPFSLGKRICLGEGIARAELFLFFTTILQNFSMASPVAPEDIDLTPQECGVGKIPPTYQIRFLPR
UniProt P08183, sequence (whole entry, looked up): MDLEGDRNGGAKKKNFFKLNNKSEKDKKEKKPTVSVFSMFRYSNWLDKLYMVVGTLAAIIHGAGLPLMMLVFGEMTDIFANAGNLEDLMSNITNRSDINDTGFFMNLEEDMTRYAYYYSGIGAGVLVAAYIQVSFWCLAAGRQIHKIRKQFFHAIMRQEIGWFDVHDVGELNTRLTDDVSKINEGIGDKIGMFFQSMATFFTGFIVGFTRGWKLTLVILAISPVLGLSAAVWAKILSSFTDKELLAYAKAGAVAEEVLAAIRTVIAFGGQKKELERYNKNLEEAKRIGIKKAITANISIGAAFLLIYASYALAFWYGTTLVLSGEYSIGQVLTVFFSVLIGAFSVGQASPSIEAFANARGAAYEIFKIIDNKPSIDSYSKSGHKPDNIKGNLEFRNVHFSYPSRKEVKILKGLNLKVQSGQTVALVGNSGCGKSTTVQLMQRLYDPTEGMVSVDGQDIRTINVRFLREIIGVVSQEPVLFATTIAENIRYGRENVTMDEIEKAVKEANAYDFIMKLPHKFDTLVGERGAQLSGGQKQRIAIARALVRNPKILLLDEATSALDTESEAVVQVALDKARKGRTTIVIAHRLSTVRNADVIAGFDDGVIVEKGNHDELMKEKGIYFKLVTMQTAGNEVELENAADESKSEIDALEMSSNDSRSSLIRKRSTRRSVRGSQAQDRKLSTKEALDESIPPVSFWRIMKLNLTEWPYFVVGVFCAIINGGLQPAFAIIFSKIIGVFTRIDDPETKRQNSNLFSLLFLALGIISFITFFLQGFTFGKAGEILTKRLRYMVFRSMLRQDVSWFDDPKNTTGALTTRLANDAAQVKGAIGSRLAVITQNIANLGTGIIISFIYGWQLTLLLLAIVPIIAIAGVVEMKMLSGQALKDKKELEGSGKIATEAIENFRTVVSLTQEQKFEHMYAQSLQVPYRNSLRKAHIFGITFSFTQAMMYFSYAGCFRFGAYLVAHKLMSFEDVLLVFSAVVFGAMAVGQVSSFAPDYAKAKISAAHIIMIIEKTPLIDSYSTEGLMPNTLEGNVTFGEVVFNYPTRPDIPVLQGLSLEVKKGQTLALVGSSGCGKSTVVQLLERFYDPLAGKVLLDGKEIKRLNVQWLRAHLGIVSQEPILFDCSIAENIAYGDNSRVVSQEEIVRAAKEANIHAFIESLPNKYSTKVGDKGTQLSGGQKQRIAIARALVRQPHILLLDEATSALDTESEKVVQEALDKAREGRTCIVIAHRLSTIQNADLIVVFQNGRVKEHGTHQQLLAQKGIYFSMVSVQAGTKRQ
UniProt O15439, sequence (whole entry, looked up): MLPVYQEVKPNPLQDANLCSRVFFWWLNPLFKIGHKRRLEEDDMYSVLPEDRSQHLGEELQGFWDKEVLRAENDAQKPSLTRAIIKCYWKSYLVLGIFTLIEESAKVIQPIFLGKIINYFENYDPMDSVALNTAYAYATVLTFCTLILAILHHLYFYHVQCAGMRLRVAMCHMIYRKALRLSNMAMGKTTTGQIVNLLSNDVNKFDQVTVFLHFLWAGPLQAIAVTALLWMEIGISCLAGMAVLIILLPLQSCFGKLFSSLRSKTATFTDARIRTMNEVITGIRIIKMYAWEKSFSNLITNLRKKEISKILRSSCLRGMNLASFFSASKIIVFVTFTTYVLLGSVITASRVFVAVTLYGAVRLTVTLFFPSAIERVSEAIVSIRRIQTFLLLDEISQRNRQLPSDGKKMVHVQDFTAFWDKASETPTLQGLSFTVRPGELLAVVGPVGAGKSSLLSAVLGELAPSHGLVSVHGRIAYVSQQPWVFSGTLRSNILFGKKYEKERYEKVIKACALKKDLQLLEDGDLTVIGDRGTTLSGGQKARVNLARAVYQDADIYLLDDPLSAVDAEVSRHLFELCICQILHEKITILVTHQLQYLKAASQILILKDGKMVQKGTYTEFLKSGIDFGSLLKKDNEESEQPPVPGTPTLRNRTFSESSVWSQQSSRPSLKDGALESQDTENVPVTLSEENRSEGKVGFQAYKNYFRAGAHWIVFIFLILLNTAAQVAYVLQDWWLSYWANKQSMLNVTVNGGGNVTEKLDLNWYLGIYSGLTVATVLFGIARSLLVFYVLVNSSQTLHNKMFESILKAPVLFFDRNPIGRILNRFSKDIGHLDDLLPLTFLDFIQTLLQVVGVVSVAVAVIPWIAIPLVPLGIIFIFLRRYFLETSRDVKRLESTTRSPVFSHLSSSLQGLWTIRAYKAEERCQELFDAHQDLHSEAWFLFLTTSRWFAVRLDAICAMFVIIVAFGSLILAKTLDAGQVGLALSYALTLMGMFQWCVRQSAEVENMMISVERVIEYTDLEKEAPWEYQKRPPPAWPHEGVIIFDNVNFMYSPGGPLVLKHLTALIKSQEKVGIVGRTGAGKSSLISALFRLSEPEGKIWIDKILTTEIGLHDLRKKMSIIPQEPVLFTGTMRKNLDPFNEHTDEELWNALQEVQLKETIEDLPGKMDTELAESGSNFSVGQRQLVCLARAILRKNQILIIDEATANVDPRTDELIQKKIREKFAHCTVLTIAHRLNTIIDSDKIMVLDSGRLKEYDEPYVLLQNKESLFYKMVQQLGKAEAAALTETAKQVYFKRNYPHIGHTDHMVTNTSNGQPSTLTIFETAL

SMILES | target | test | system | conditions | how to read | measurement | result
CN1CCN(c2ccc3[nH]c(-c4ccc5[nH]c(-c6ccc(OCCCCNC(=O)c7cccc8c7C(=O)OC87c8ccc(N(C)C)cc8C(C)(C)c8cc(N(C)C)ccc87)cc6)nc5c4)nc3c2)CC1 | ALB | binding, fluorescence titration | PBS | 1 h | – | Kd | 57 ± 7 µM
CNc1nc(N)nc2c1ncn2[C@@H]1O[C@H](CO)[C@@H](O)[C@@]1(C)F | ABCB1 | bidirectional transport | LLC-PK1, human MDR1, transfected with | 10 µM | – | Papp B to A | 21.7 ± 1 ×10⁻⁶ cm/s
C/C(N)=N/C(=N\S(=O)(=O)c1ccc(C(F)(F)F)cc1)N1C[C@H](c2ccccc2)C(c2ccc(Cl)cc2)=N1 | ABCB1 | – | MDCK-MDR1 monolayers | 5 µM, 120 min, pH 7.4 | – | Papp A-B | 0.12 ± 0.02 ×10⁻⁶ cm/s
CNC(=O)C1CCCN(C(=O)C2CC3CCC2N3C(=O)[C@@H]2C[C@@H](O)CN2C(=O)NCc2cccc(Cl)c2F)C1 (mixture of isomers) | Cytochrome P450 2B6 (CYP2B6, Homo sapiens, UniProt P20813) | preincubation with NADPH | human | 0.206 µM | baseline: negative control | remaining activity | 100% and 99.8% and 97.8%
CC1(C(=O)OC2OC(C(=O)O)C(O)C(O)C2O)CCC2(C)CCC3(C)C(=CC(=O)C4C5(C)CCC(O)C(C)(C)C5CCC43C)C2C1 (stereo not shown) | ABCC4 (Homo sapiens, UniProt O15439) | substrate, vesicular transport, item: MRP4 | inside-out membrane vesicles | 100 µM, 1 h | baseline: with over without vanadate | net transport ratio | 4 ± 0.9
O=C(O)c1cccc(CN2CCCNCCNCCCNCC2)n1 | Pd(II) | potentiometry and UV spectrophotometry | aqueous 1.0 M KCl | 25 °C, Pd2+ + L to PdL | – | log overall stability constant | 38.4
CN(C)c1ccc2c(c1)[Si](C)(C)c1cc(N(C)C)ccc1C21OC(=O)c2c(C(=O)O)cccc21 | ALB | binding, fluorescence titration | PBS | – | – | Kd | 12 ± 1 µM
CNc1nc(N)nc2c1ncn2[C@@H]1O[C@H](CO[P@](=O)(O)N[C@@H](C)C(=O)O)[C@@H](O)[C@@]1(C)F | ABCB1 | bidirectional transport | LLC-PK1, human MDR1, transfected with | 10 µM | – | efflux ratio | 1.01 ± 0.1
CN1CCN(c2ccc3[nH]c(-c4ccc5[nH]c(-c6ccc(OCCCCNC(=O)c7ccc8c(c7)C7(OC8=O)c8ccc(N(C)C)cc8[Si](C)(C)c8cc(N(C)C)ccc87)cc6)nc5c4)nc3c2)CC1 | ALB | binding, second site, fluorescence titration | PBS | – | – | Kd | > 1000 µM
C=CC(=O)Nc1cc(Nc2nccc(-c3cn(C)c4ccccc34)n2)c(OCC(F)(F)F)nc1N(C)CCN(C)C | CYP1A2 human | inducer | hepatocytes lot LTG | 0.1 µM | baseline: omeprazole 100 µM | induction relative to positive control | 2.02%

A few entries again:
SMILES | target | test | system | conditions | how to read | measurement | result
C/C(N)=N/C(=N\S(=O)(=O)c1ccc(C(F)(F)F)cc1)N1C[C@H](c2ccccc2)C(c2ccc(Cl)cc2)=N1 | ABCB1 | – | MDCK-MDR1 monolayers | 5 µM, 120 min, pH 7.4 | – | Papp A-B | 0.12 ± 0.02 ×10⁻⁶ cm/s
